Assay results pooled from the literature.
Each line is one published result; not all experiments were run side by side.
Read-out: reporter gene
lasR A127W: Transcriptional activator protein LasR (lasR, Pseudomonas aeruginosa, UniProt P25084, A127W)
lasR: Transcriptional activator protein LasR (lasR, Pseudomonas aeruginosa, UniProt P25084)

With `CS(=O)(=O)c1cccc(OCCCC(=O)N[C@H]2CCOC2=O)c1` the EC50 was 1200 nM (lasR A127W; agonist).
`CCCCCCCCCCCCNC(=O)CC(=O)c1ccccc1` gave an IC50 of 700 nM (lasR; antagonist; Pseudomonas aeruginosa PAO-JP2 GFP reporter; with: 150 nM OdDHL).
`O=C(Cn1cc(-c2cc(F)cc(F)c2)nn1)N[C@H]1CCOC1=O` gave an IC50 of 13700 nM (lasR; antagonist).
With `O=C(CCCOc1ccc(Cl)cc1)N[C@H]1CCOC1=O` the EC50 was 33000 nM (lasR; agonist; Escherichia coli, JLD271 with LasR plasmid).
The EC50 of `O=C(Oc1c(Br)cc(Br)cc1CNC(=O)c1ccccc1[N+](=O)[O-])c1ccccc1Cl` is reported as under 5 nM (lasR; agonist; Escherichia coli, JLD271 LasR reporter).
`CCCCCCCCCC(=O)CC(=O)Nc1ccccc1O` has an EC50 of 96 nM (lasR; agonist; Escherichia coli, JLD271 with LasR plasmid).
`O=C(Cn1cc(-c2ccccc2)nn1)N[C@H]1CCOC1=O` gave an IC50 of 15900 nM (lasR; antagonist).
`O=C(CCCCCCCCCN=C=S)CC(=O)N[C@H]1CCOC1=O` gave an EC50 of 2600 nM (lasR; agonist; PAO-JP2 pump active).
The EC50 of `CS(=O)(=O)c1cccc(OCCCC(=O)NC2CC3CC3C2O)c1` (stereo not drawn) is reported as over 100000 nM (lasR A127W; agonist; Escherichia coli lasB-lux reporter).
